# Literature values, collected from citations in different studies.
# Each line is one published result; not all experiments were run side by side. ± gives the spread as reported.
Structure (SMILES),tested on,test,system,setting,endpoint,value
CCCCCCCN(CC)CCCC(O)c1ccc(NS(C)(=O)=O)cc1 (stereo not drawn),,,mouse,,fraction unbound,0.114
CCCCCOc1ccc(-c2ccc(-c3ccc(C(=O)N[C@H]4C[C@@H](O)[C@@H](O)NC(=O)[C@@H]5[C@@H](O)[C@@H](C)CN5C(=O)[C@H]([C@@H](C)O)NC(=O)[C@H]([C@H](O)[C@@H](O)c5ccc(O)cc5)NC(=O)[C@@H]5C[C@@H](O)CN5C(=O)[C@H]([C@@H](C)O)NC4=O)cc3)cc2)cc1,,,moderate hepatic impairment patients,50 mg single dose,volume of distribution,36.5 ± 8 L
O=C(O)C(F)(F)C(F)(F)C(F)(F)C(F)(F)C(F)(F)C(F)(F)C(F)(F)C(F)(F)C(F)(F)C(F)(F)F,CYP3A4,,,concentration not given,activity,inactive
O=C(O)[C@@H](c1ccccc1)[C@@H]1CCCCN1,,,"human, by CES1 genotype, plasma","oral, 10 mg methylphenidate, single dose, median",half-life,6.7 h
c1ccc2c(c1)Cc1ccccc1-2,,substrate,human liver microsomes,,Km,4.16 µM
COCCOC(=O)C1=C(C)NC(C)=C(C(=O)OC(C)C)C1c1cccc([N+](=O)[O-])c1 (stereo not drawn),,,dog,,fraction unbound,0.007
O=C(O)C(F)(F)C(F)(F)C(F)(F)C(F)(F)C(F)(F)C(F)(F)F,CYP1A2,inhibitor,,Tox21 screening,IC50,inactive
CCCNC(=O)NS(=O)(=O)c1ccc(Cl)cc1,,,mouse,,fraction unbound,0.441
O=S(=O)([O-])C(F)(F)C(F)(F)C(F)(F)C(F)(F)F.[K+],CYP3A4,inhibitor,,Tox21 screening,IC50,inactive
